Assay results gathered from unrelated publications.
A part holds a random share of what one study measured.
Sequence of UniProt P78356 (whole entry, looked up): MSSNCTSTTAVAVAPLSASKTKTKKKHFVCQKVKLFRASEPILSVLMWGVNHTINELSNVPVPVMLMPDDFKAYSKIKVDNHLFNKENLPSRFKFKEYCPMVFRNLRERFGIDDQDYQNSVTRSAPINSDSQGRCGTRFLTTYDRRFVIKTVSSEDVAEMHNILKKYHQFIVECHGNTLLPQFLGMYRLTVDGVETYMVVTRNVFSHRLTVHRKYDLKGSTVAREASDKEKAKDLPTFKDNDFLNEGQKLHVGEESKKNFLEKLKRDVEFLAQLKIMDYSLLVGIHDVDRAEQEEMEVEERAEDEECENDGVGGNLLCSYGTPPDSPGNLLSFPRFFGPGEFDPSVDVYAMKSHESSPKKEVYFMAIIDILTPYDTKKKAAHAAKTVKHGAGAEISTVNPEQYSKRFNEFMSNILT
Sequence of UniProt Q9UQ88 (whole entry, looked up): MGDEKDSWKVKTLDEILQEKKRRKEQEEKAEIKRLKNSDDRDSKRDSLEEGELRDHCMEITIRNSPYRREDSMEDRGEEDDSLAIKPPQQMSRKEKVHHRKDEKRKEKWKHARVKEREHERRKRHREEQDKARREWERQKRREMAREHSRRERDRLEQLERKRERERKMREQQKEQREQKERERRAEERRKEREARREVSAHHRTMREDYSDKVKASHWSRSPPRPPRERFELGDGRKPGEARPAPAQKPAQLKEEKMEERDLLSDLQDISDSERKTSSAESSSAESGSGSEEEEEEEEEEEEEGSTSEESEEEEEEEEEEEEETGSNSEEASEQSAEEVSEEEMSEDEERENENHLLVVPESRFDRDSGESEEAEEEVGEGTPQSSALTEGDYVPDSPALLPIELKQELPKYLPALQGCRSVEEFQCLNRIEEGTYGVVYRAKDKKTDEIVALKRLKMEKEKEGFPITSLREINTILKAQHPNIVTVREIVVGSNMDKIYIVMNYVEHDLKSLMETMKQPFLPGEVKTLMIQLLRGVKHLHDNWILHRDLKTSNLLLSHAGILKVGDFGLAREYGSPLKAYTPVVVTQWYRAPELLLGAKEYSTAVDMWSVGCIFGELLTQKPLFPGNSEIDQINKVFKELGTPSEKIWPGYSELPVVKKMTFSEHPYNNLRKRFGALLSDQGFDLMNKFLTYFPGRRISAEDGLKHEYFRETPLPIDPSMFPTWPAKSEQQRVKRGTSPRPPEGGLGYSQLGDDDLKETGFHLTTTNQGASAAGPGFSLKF
Sequence of UniProt O14965 (whole entry, looked up): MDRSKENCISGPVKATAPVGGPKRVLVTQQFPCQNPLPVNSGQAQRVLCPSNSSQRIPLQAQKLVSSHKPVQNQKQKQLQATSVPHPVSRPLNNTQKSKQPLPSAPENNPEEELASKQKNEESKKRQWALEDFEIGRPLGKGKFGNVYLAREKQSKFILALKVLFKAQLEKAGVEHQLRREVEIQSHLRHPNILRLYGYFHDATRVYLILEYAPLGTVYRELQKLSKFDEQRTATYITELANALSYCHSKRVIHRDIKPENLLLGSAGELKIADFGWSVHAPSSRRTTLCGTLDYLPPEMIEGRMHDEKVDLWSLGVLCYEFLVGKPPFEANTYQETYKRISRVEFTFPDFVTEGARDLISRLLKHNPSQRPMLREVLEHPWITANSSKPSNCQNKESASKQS
Sequence of UniProt Q9BUB5 (whole entry, looked up): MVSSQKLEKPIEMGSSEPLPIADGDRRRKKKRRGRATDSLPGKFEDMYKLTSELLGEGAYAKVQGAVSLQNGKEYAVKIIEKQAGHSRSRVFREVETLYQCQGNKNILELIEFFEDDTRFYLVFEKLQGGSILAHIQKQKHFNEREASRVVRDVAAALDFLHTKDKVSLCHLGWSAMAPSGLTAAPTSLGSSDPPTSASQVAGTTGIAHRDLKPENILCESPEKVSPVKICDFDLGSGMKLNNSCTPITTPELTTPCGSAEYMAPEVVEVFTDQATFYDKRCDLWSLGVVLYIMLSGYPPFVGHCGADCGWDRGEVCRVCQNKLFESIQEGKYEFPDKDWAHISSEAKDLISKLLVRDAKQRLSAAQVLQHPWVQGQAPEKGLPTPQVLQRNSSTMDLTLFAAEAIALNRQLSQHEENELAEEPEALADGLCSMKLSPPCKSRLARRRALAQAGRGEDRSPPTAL
Sequence of UniProt P16591 (whole entry, looked up): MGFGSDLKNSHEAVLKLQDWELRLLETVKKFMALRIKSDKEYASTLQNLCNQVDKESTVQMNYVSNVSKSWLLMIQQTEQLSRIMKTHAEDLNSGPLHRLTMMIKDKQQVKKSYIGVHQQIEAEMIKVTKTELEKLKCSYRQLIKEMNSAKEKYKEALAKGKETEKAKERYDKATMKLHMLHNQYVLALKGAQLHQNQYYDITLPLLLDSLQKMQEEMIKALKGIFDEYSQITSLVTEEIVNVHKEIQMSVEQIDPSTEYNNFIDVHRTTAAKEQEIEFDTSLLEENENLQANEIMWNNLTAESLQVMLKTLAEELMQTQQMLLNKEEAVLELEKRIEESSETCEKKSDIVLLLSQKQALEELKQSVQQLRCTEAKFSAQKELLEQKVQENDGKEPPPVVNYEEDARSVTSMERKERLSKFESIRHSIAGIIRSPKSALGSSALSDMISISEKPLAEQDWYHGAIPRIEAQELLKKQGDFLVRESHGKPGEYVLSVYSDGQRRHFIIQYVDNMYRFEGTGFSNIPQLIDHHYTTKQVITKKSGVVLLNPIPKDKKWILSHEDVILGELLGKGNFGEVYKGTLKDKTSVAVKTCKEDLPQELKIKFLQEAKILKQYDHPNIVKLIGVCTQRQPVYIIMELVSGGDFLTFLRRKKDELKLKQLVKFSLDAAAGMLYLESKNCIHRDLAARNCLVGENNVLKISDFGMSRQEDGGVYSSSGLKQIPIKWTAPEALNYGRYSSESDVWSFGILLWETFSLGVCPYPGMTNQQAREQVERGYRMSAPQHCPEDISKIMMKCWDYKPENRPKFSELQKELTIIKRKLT
Sequence of UniProt Q15303 (whole entry, looked up): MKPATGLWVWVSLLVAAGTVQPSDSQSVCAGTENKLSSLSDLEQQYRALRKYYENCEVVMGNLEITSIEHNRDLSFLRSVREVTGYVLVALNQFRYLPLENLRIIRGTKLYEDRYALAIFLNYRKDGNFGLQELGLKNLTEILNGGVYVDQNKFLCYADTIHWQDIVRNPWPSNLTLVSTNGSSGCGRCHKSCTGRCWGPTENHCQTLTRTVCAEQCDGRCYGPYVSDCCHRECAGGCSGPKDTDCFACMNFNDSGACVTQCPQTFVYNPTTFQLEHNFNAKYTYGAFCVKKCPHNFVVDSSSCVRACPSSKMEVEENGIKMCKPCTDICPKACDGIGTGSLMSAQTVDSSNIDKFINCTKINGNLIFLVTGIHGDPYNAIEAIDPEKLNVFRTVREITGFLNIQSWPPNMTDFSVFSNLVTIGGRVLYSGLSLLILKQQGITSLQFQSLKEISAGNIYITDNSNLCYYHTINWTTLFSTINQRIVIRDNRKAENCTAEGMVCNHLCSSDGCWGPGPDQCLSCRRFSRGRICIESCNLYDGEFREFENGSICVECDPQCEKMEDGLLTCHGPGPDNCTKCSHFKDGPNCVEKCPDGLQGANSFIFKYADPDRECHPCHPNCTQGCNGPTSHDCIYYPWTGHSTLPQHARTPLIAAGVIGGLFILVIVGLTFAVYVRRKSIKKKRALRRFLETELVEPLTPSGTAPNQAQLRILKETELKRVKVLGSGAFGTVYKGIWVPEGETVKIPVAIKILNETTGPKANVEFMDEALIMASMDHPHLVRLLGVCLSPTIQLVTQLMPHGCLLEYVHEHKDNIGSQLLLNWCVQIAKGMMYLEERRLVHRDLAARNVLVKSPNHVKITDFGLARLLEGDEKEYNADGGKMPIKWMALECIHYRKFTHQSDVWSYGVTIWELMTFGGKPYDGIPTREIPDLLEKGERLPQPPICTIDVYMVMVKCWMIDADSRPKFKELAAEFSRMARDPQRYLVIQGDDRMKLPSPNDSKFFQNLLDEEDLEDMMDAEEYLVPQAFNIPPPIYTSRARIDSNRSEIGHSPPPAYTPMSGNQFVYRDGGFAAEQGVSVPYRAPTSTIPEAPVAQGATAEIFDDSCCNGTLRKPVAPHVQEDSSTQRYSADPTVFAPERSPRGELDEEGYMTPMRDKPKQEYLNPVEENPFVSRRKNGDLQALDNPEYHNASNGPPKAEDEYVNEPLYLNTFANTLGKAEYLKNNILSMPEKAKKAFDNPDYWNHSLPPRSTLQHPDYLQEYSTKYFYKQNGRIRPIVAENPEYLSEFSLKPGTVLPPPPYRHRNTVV
Sequence of UniProt P51817 (whole entry, looked up): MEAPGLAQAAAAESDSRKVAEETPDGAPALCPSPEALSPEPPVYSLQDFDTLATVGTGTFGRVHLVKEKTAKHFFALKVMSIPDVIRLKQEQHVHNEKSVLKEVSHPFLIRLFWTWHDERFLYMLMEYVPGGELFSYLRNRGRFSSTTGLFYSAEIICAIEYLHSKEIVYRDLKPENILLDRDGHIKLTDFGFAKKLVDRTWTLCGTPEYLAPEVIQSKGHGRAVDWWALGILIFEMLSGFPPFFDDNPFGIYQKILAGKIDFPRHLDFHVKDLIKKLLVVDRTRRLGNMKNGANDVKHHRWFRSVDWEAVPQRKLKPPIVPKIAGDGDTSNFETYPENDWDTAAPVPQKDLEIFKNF

Sample 1 — method: protein binding microarray; form: double-stranded DNA, one strand shown; sample: in vitro; concentration: not given; baseline: not given; direction: higher = stronger binding
Target: Histone acetyltransferase KAT6A, winged helix 1, GST fusion (KAT6A, Homo sapiens, UniProt Q92794, residues 1-85)
Notes: 8-mer, flanks averaged, mean of 2 arrays, mostly near background
Target sequence (chain): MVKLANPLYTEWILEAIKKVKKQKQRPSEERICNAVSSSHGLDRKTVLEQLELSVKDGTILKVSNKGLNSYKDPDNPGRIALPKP
The E-score of `CATTTAAC` is reported as -0.101.
`AGTAGTCC` gave an E-score of 0.192.
The E-score of `TTTACAAA` is reported as -0.162.
For `AGGGGACA`, the E-score was 0.022.
With `ACAGCCGT` the E-score was 0.275.
The E-score of `AGGTTATG` is reported as -0.0965.
`AGCCCTCG` gave an E-score of -0.0681.
`CCTTGCGA` has an E-score of -0.0967.

Sample 2 — target: Sox-I, HMG box (Salpingoeca helianthica); method: Spec-seq; form: double-stranded DNA, one strand shown; sample: in vitro; concentration: not given; notes: whole probe, mean of replicates; baseline: not given; direction: lower = stronger binding; shared flanks, not repeated: GAGTCGTCTCGTCAGCAC … CCGTAGAGCACTCAGGTC
Target sequence (chain): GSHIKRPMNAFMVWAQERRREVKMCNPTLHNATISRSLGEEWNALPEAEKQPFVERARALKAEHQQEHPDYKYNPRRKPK
`CATAGTC`: “relative binding energy” 0.205 ln ratio.
`CATTTCC`: “relative binding energy” 0.878 ln ratio.
`CATGCAA` — result for “relative binding energy”: 0.916 ln ratio.
Under “relative binding energy”, `CATTTGT` is recorded as -0.644 ln ratio.
`TAGGGTT`: “relative binding energy” 0.77 ln ratio.
`CATGTTG`: “relative binding energy” 0.919 ln ratio.
`ATACGTT`: “relative binding energy” 0.0834 ln ratio.
For `CCTGGTT`, “relative binding energy” read 0.782 ln ratio.

Sample 3 — method: competition with immobilised ligand; concentration: 1 µM
SMILES: CN(C)CC#Cc1ccc(OCCCc2sc(N3CCc4cccc(C(=O)Nc5nc6ccccc6s5)c4C3)nc2C(=O)O)c(F)c1
For RET (Homo sapiens, UniProt P07949, M918T); cell-free assay: remaining binding read 100%.
It gave 100% for remaining binding (CDK11A (Homo sapiens, UniProt Q9UQ88); binding).
PIP4K2B (Homo sapiens, UniProt P78356); cell-free assay — remaining binding: 80%.
The remaining binding was 98% (PRKX (Homo sapiens, UniProt P51817); cell-free assay).
The remaining binding was 92% (Aurora kinase A (AURKA, Homo sapiens, UniProt O14965); cell-free assay).
MKNK1 (Homo sapiens, UniProt Q9BUB5); cell-free assay — remaining binding: 78%.
It gave 100% for remaining binding (FER (Homo sapiens, UniProt P16591); cell-free assay).
For ERBB4 (Homo sapiens, UniProt Q15303); cell-free assay: remaining binding read 99%.
The remaining binding was 89% (EGFR (Homo sapiens, UniProt P00533, A750P/del747-749); cell-free assay).
For FLT3 (Homo sapiens, UniProt P36888, ITD); cell-free assay: remaining binding read 97%.

Further values, each from its own experiment — read-out: enzyme activity; action: inhibitor; concentration: 0.5 µM; baseline: control
Target: Casein kinase I isoform epsilon (CSNK1E, Homo sapiens, UniProt P49674)
Sequence of UniProt P49674 (whole entry, looked up): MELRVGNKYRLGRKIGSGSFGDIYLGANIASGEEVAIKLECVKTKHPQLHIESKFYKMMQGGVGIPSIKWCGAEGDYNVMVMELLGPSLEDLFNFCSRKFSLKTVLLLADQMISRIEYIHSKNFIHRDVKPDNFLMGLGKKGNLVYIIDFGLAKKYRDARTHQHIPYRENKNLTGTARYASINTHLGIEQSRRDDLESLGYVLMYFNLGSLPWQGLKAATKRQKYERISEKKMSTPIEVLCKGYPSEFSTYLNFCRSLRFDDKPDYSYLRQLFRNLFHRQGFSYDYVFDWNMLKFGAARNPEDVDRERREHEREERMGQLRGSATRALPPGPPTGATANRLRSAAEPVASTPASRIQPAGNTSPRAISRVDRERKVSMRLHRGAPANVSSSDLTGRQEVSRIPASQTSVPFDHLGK
`Cn1c2ccccc2c2c3c(c4c5ccccc5n(CCC#N)c4c21)CNC3=O` gave a remaining activity of 80.4%.
For `COc1cc2nccc(Oc3ccc(NC(=S)NC(=O)c4ccccc4C)cc3)c2cc1OC`, the remaining activity was 95.1%.

Some of these lines once more (sample 1):
`AGCCCTCG` gave an E-score of -0.0681.
`CCTTGCGA` has an E-score of -0.0967.
